Experimental data collected from several papers.
Each line is one published result; not all experiments were run side by side. “And” joins repeats or separate records; there may be more than shown. ± marks the error that the study gave.
Kir3.1/Kir3.4: Kir3.1/Kir3.4 (Homo sapiens, UniProt P48544+P48549)
AKR1B1: Aldo-keto reductase family 1 member B1 (AKR1B1, Homo sapiens, UniProt P15121)
SLC6A6 G62A: Sodium- and chloride-dependent taurine transporter (SLC6A6, Homo sapiens, UniProt P31641, G62A)
pyrD: Dihydroorotate dehydrogenase (quinone) (pyrD, Acinetobacter baumannii, UniProt B7GZW7)
T1: riboswitch RNA yjdF aptamer domain (Bacillus subtilis); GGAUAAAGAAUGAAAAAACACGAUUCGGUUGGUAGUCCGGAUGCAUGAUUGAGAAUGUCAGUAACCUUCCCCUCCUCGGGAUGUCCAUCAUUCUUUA

Nc1ncnc2c1ncn2[C@@H]1O[C@H](COP(=O)(O)CP(=O)(O)OP(=O)(O)O)[C@@H](O)[C@H]1O  specific binding (P2X purinoceptor 1 (P2RX1, Homo sapiens, UniProt P51575); saturation binding; HEK293; 79 nM): 5260 CCPM and 8520 CCPM and 8620 CCPM and 3320 CCPM and 8300 CCPM
CCOc1ccc(NC(=O)O[C@H](Cn2nc(C(C)C)cc2C(C)C)C(C)C)cc1  ACh-evoked current (Neuronal acetylcholine receptor; alpha4/beta2, (α4)2(β2)3 stoichiometry (Homo sapiens, UniProt P17787+P43681); two-electrode voltage clamp; Xenopus oocytes; 10 µM, high-sensitivity stoichiometry, with: ACh 10 µM; relative to: ACh alone): 88 ± 9%
CCc1cc(NC(=O)COc2ccc(Cl)cc2Cl)n(CC(F)(F)F)n1  Emax (Kir3.1/Kir3.4; thallium flux, activator; HEK293; relative to: standard compound): 80%
Nc1nc2c(ncn2[C@@H]2O[C@H](COP(=O)(O)O)[C@@H](O)[C@H]2O)c(=O)[nH]1  reaction rate (GUK1 (Homo sapiens, UniProt Q16774, R41A); enzyme activity, NADH-coupled; 2000 µM): 1.52 s⁻¹ and 1.17 s⁻¹ and 1.15 s⁻¹
O=C(Nc1ccccc1OS(=O)(=O)c1ccc(F)cc1)c1ccc2ncccc2c1  fluorescence increase (P2X purinoceptor 4 (P2RX4, Homo sapiens, UniProt Q99571); calcium mobilization; MCF7 stably transfected; 100 µM, with: ATP 100 µM): 81.7 ± 0.11%
O=C(COc1cccc(Cl)c1Cl)Nc1cc(C2CCC2)nn1CC(F)(F)F  activity (Kir3.1/Kir3.4; activator, thallium flux; HEK293; concentration not given): inactive
CCCCCCCCCCCCCCCCc1ccc([C@H]2CC[C@H]([N+](C)(C)CCC)CC2)cc1.[I-]  Ki/Km ratio (SPHK2 (Homo sapiens, UniProt Q9NRA0); inhibitor, radiometric flash-plate; cell lysate; with: sphingosine 5 µM): 5.8
CC1=NN(c2ccccn2)C(=O)C1=NNc1ccc(S(N)(=O)=O)cc1  inhibition (bovine α-glucosidase; enzyme activity, inhibitor, glucose oxidase; 100 µg/mL, with: maltose): 41.6%
O=C(CN1C(=O)S/C(=C\c2cccc([N+](=O)[O-])c2)C1=O)c1ccc([N+](=O)[O-])cc1  Hill slope (AKR1B1; enzyme activity, inhibitor): -0.496
COc1cc(F)cc2c(N3CCN4c5ccccc5OC[C@H]4C3)c(C#N)nnc12  maximal response (Grm7 (Rattus norvegicus, UniProt P35400); positive allosteric modulator; cell-based; with: L-AP4 EC20; relative to: L-AP4 maximum): 84%
CC[C@H](C)[C@H](NC(=O)[C@H](CCC(=O)O)NC(=O)[C@H](C)NC(=O)[C@@H](NC(=O)[C@H](Cc1c[nH]cn1)NC(=O)[C@H]1CCC[C@@H]1NC(=O)[C@H](CCC(=O)O)NC(=O)[C@H](C)NC(=O)[C@H]1CCC[C@@H]1NC(=O)[C@H](CC(C)C)NC(=O)[C@H](Cc1c[nH]cn1)NC(=O)[C@H](Cc1c[nH]cn1)NC(=O)[C@H]1CCC[C@@H]1NC(=O)[C@H](Cc1ccccc1)NC(=O)[C@H](Cc1ccccc1)NC(=O)[C@H](CCCNC(=N)N)NC(=O)[C@H](CCCNC(=N)N)NC(=O)[C@H](CCCNC(=N)N)NC(=O)[C@H]1CCC[C@@H]1NC(=O)[C@H](CC(=O)O)NC(=O)[C@H](CCC(N)=O)NC(=O)[C@@H](NC(=O)C[C@H](Cc1c[nH]c2ccccc12)NC(=O)[C@H](CCCCN)NC(=O)[C@@H](Cc1c[nH]c2ccccc12)NC(=O)[C@H](CC(C)C)NC(=O)[C@H](CC(=O)O)NC(=O)[C@H](Cc1c[nH]cn1)NC(=O)[C@H](CC(C)C)NC(=O)C[C@@H](N)CC(C)C)[C@@H](C)CC)[C@@H](C)O)C(N)=O  cAMP formation (PTH1R (Homo sapiens, UniProt Q03431); antagonist, GloSensor cAMP; HEK293 expressing PTH1R; concentration not given, with: PTH(1-34)): decreased
O=C(NO)c1ccc(CN2CCCCc3ccccc32)c(F)c1  inhibition (HRH3 (Homo sapiens, UniProt Q9Y5N1); radioligand binding, radioligand displacement; 10 µM, mean of replicates): 21.9%
NS(=O)(=O)NCCNc1nonc1C(=NO)Nc1ccc(F)c(Br)c1  inflection temperature (IDO1 (Homo sapiens, UniProt P14902); nanoDSF; 2% DMSO; 50 µM, unlabelled protein, 2 mM DTT): 65.3 ± 0.2 °C
O=C(O)C1CCCNC1 (stereo not shown)  normalised MST signal (SLC6A6 G62A; binding, microscale thermophoresis; 250 µM, room temperature, with: 50 nM labelled protein; higher = more binding): 0.305
COc1cc(-c2cncc3c2CN(C)Cc2cc(N4CCNCC4)ccc2-3)cc(OC)c1OC  remaining activity (GRK7 (Homo sapiens, UniProt Q8WTQ7); kinase activity; 1 µM, human enzyme, with: ATP 10 µM; relative to: DMSO control): 102%
O=C1S/C(=C\c2ccc(Br)cc2)C(=O)N1Cc1nc2ccccc2s1  Hill slope (AKR1B1; enzyme activity, inhibitor): -0.424
Cc1cc(Nc2ccc3ccccc3c2)n2ccnc2n1  robust Z-score (pyrD; enzyme activity, inhibitor, colorimetric HTS, measured: DCIP reduction; 3 µM; direction not given): 21.6
NC(=O)c1ccc[n+]([C@@H]2O[C@H](COP(=O)([O-])OP(=O)(O)OC[C@H]3O[C@@H](n4cnc5c(NCCNC(=O)CCCCCNC(=O)CCCCCNC(=O)CCCC[C@@H]6SC[C@@H]7NC(=O)N[C@@H]76)ncnc54)[C@H](O)[C@@H]3O)[C@@H](O)[C@H]2O)c1  apparent Km (PARP11 (Homo sapiens, UniProt Q9NR21); substrate, DELFIA auto-modification): 18 µM
CCNC(=O)/C=C/c1cccc(Br)c1  L-leucine uptake (SLC6A19 (Homo sapiens, UniProt Q695T7); inhibitor, L-[14C]leucine uptake; CHO-BC cells; 30 µM, sodium-free): 5.3 nmol/6 min/mg protein and 5.57 nmol/6 min/mg protein and 5.34 nmol/6 min/mg protein
C=CC1=C(C)/C(=C/C2=NC(=C\c3[nH]c(/C=C4\NC(=O)C(C)=C4C=C)c(C)c3CCC(=O)O)/C(CCC(=O)O)=C2C)NC1=O  Kd (T1, riboswitch RNA yjdF aptamer domain (Bacillus subtilis); fluorescence titration): 0.64 µM
CC(C)OCCn1c(=S)[nH]c(=O)c2[nH]ccc21  H2O2 concentration (Myeloperoxidase (MPO, Homo sapiens, UniProt P05164); H2O2 consumption, inhibitor, H2O2 electrode; 0.226 µM, 0 s): -33.1 µM
CC1(C)CC[C@]2(C(=O)O)CC[C@]3(C)C(=CC[C@@H]4[C@@]5(C)C[C@@H](O)[C@H](OC(=O)/C=C/c6ccc(O)cc6)C(C)(C)[C@@H]5CC[C@]43C)[C@@H]2C1 (relative stereo)  photoaffinity labelling (Presenilin-1, N-terminal fragment (PSEN1, Homo sapiens, UniProt P49768); S1′ subsite probe binding, competitor, measured: PS1 labelled by JC-8; HeLa membranes): decreased
O=C(COP(=O)(O)O)[C@@H](O)[C@H](O)[C@H](O)COP(=O)(O)O  thermal stability ratio (Small ribosomal subunit protein uS19 (Homo sapiens, UniProt P62841); thermal proteome profiling, measured: RPS15; HepG2 cell lysate; concentration not given, 57 over 37 °C, mean; relative to: compound over control): 0.59
CNc1ncc2c(/C=C/C(=O)N3CCC(OC)CC3)nn(Cc3cccc(C(F)(F)F)c3)c2n1  remaining activity (EPHB4 (Homo sapiens, UniProt P54760); kinase activity, inhibitor; 1 µM; relative to: untreated control): 78%
COc1cc(CNCCc2ccccc2)ccc1Oc1ccc(C(N)=O)cn1  Imax (Mu-type opioid receptor, with Gi1 (OPRM1, Homo sapiens, UniProt P35372); Gαi1 dissociation, antagonist, BRET2 TRUPATH; HEK-293T; with: DAMGO EC80; relative to: naloxone): 111 ± 1.9%
CCOC(=O)c1c(NC(=O)CNC(C)C)sc2c1CCCCC2  fast inactivation time constant (SCN2A (Homo sapiens, UniProt Q99250); sodium current, whole-cell voltage clamp; HEK cells; 20 µM): 1.4 ± 0.3 ms
NC/C(=C\F)COc1cccc(Cn2c(=S)[nH]c(=O)c3[nH]cnc32)c1  inhibition (CACNA1C (Homo sapiens, UniProt Q13936); peak ion current, inhibitor, automated patch clamp; 30 µM, pulse 10): 14.1%
O=C(Nc1ccccc1)c1ccc2c(c1)C(=O)NC2=O  potency ratio (MAOB (Homo sapiens, UniProt P27338); enzyme activity, inhibitor; relative to: phthalimide IC50 over cpd IC50): 41 fold
Nc1ncnc2c1ncn2[C@@H]1O[C@H](COP(=O)(O)OP(=O)(O)OP(=O)(O)O)[C@@H](O)[C@H]1O  normalized current (P2X purinoceptor 7 (P2rx7, Rattus norvegicus, UniProt Q64663, Q143A); ion current, agonist, two-electrode voltage clamp; Xenopus laevis oocytes; 166 µM; relative to: highest concentration response): 0.741 and 0.546 and 0.332
O=C(COc1cccc(Cl)c1Cl)NCc1cccs1  activity (Kir3.1/Kir3.4; activator, thallium flux; HEK293; concentration not given): inactive
O=S(=O)(O)C1CCNCC1  normalised MST signal (SLC6A6 G62A; binding, microscale thermophoresis; 244 nM, room temperature, with: 50 nM labelled protein; higher = more binding): 0.0208
CCc1nc2nc(C)cc(Nc3ccc(I)cc3)n2n1  robust Z-score (pyrD; enzyme activity, inhibitor, colorimetric HTS, measured: DCIP reduction; 3 µM; direction not given): 15.5
COc1cc(F)ccc1-c1ncnc(Nc2cccc(C[S@](C)(=N)=O)c2)n1  remaining activity (TYRO3 (Homo sapiens, UniProt Q06418); kinase activity; 10 µM, with: 10 µM ATP): 93%
O=c1nc(SCc2cc(F)cc(C(F)(F)F)c2)nc(SCc2ccc3nc(Cl)ccc3c2)[nH]1  ATP hydrolysis rate (TOP2A (Homo sapiens, UniProt P11388); ATPase activity; 125 µM, with: ATP 0.1 mM): 0.301 µM/min and 0.851 µM/min
C=CC(=O)N1CCC(COCC(=O)N2CCN(c3nc(-c4cnc(N)nc4C(F)F)nc(N4CCOC[C@@H]4C)n3)CC2)CC1  remaining binding (GRK4 (Homo sapiens, UniProt P32298); KINOMEscan; 1 µM): 58%
CC1CCCN(C(=O)c2cc3ncccn3n2)C1 (stereo not shown)  fold enrichment (Protein transport protein Sec31A (SEC31A, Homo sapiens, UniProt O94979); binding, affinity selection mass spectrometry; relative to: other proteins in batch): 1.01
CC1=NN(c2ccc(Cl)cc2)C(=O)C1=NNc1ccc(S(N)(=O)=O)cc1  inhibition (bovine α-glucosidase; enzyme activity, inhibitor, glucose oxidase; 200 µg/mL, with: maltose): 42.1%
CC(=O)NCCCC[C@H](NC(=O)[C@H](CC(=O)O)NC(=O)[C@H](CO)NC(C)=O)C(=O)Nc1ccc2c(C)cc(=O)oc2c1  Km (human Y386F mutant enzyme; substrate, fluorogenic): 26 ± 9 µM
C1=C/COCc2cc(ccc2OCCN2CCCC2)Nc2nccc(n2)-c2cccc(c2)COC/1  percent of control (PKMYT1 (Homo sapiens, UniProt Q99640); concentration not given): 95%
NCCCC[C@H](N)C(=O)Nc1ccc2ccccc2c1  Km (rat aminopeptidase III; substrate): 5 µM
CC(=O)N[C@H](C(=O)N1C[C@H](O)C[C@H]1C(=O)NCc1ccc(-c2scnc2C)cc1)C(C)(C)SCCCCCCNC(=O)C[C@@H]1N=C(c2ccc(Cl)cc2)c2c(sc(C)c2C)-n2c(C)nnc21  ΔpKd (BRD2/VHL, BD1; with VCB (Homo sapiens, UniProt P25440+P40337, K107A/Q101K/V106E); ITC; 25 °C, unit not given, with: BRD2 BD1; relative to: ternary over binary): 0.8 ± 0.2
C=CC(=O)N1CCC[C@@H](n2nc(-c3ccc(Oc4ccccc4)cc3)c3c(N)ncnc32)C1  remaining activity (DYRK2 (Homo sapiens, UniProt Q92630); 1 µM): 82.3%
N#Cc1ccn2c(-c3ccncc3)c(-c3ccc(F)cc3)nc2c1  log2 fold change (Cyclin-dependent kinase 1 (CDC28, Candida albicans, UniProt P43063); kinase binding, competitor, MIB/MS competition, measured: CDC28; Candida albicans cell lysate; 1 µM; relative to: DMSO): -0.145
c1ccc(-c2n[nH]cc2-c2ccncn2)nc1  selectivity improvement (CSNK1A1 (Homo sapiens, UniProt P48729); enzyme activity; relative to: LY selectivity fungal over CSNK1A1): 5 fold
CCC(F)(F)c1nc2nc(C)cc(Nc3ccc(S(F)(F)(F)(F)F)cc3)n2n1  robust Z-score (pyrD; enzyme activity, inhibitor, colorimetric HTS, measured: DCIP reduction; 3 µM; direction not given): 20.4
Cc1ccc(C(C)C)cc1O  Hill coefficient (uncharacterized protein (Solanum tuberosum, UniProt M0ZZL3); enzyme activity): 1 ± 0.1
